Experimental data of several laboratories.
Compare with care: the assays were run in different laboratories. pIC50: −log10 of the molar value.

SMILES	cell line	assay	setting	measurement	value
Cc1ccc2nc(NC(=O)Cn3cc(COc4ccc(/C=N/NC(=O)c5ccccc5)cc4)nn3)sc2c1	T47D	cell viability, MTT	48 h	pIC50	4.77
Fc1cc(-c2nc3ccccc3[nH]2)ccc1OCCN1CCOCC1	Z-138	cell growth or viability, MTS	72 h	pIC50	< 4.00
C=CCN1c2cccnc2Sc2cccnc21	SNB-19	cell growth or viability, WST-1	72 h	IC50	~20 µg/mL
O=C1c2c(O)ccc(O)c2C(=O)c2c(NCCNCCO)ccc(NCCNCCO)c21	HCT-15/ADM2	cell growth, XTT	72 h	IC50	0.47 µg/mL
C[C@@H]1C[C@H]2[C@@H]3CCC4=CC(=O)C=C[C@]4(C)[C@@]3(F)[C@@H](O)C[C@]2(C)[C@@]1(O)C(=O)CO	ReNcell VM	cell viability, live/dead 3D alginate microarray	24 h exposure plus 48 h	pIC50	2.72
O=c1c(O)c(-c2ccc(O)c(O)c2)oc2cc(O)cc(O)c12	Jurkat	cell growth or viability, ATP luminescence	24 h	pIC50	5.00
O=c1[nH]c2ccccc2nc1/C=C/c1ccccc1Cl	B16-F10	cell growth or viability, MTT	72 h	pIC50	5.25
CC(=O)OCc1ccc(C=O)o1	Hepa-1c1c7	cell growth or viability		pIC50	< 4.00
CSC1=NC(=N)C(=NNc2ccc(S(=O)(=O)Nc3ncccn3)cc2)C(N)=C1C#N	A-431	cell growth or viability, MTT	48 h	pIC50	4.69
O=C1Nc2ccccc2C1=Cc1cc2ccc(Cl)cc2nc1Cl	OV2008	cell viability, MTT	72 h	pIC50	4.31
O=c1[nH]c2ccccc2nc1/C=C/c1ccc(C(F)(F)F)cc1	B16-F10	cell growth or viability, MTT	72 h	pIC50	5.06
